Published values gathered from unrelated publications.
Each line is one published result; not all experiments were run side by side. Numbers after ± are the reported error. Converted amounts (≈) assume the structure as drawn.

SMILES	assay	test system	setting	how to read	quantity	value
Cc1cc(C(=O)N[C@@H](CO)CC(C)C)ccc1CO	LC-MS	human liver microsomes	10 µM of parent drug, 60 min, pH 7.4, added: NADPH	relative to: parent drug at time zero	metabolite peak area	0.8%
Cc1ccccc1/N=N/c1ccc(/N=N/c2c(O)ccc3ccccc23)c(C)c1		rat whole blood	16.0 µg/L, 30 days, -20 °C, long-term storage		measured concentration	16.2 µg/L
COC(=O)C(c1ccccc1Cl)N1CCC(SCC(=O)c2cccc(OC)c2)C(=CC(=O)O)C1 (mixture of isomers)	HPLC-MS/MS	feline citrate plasma	100 ng/mL, 12 h, 4 °C, storage stability		deviation from nominal	0%
CC(C)(Sc1cc[n+]([O-])cc1-c1ccc(C#N)c2ccccc12)C(=O)OC1OC(C(=O)O)C(O)C(O)C1O (stereo not shown)		human, urine	oral, 15 mg, 72 h, severe renal impairment		renal clearance	35 mL/min
[123I]c1ccc2nc(-c3ccc(-n4ccnn4)nc3)cn2c1		human, venous plasma	intravenous, 60 min		intact parent remaining	~10%
CC(C)c1cnc(-c2cc(Cl)ccc2F)cc1Nc1ccncc1C(=O)NC(CO)CO	monotherapy, refers to: diarrhoea	human patients	oral, dose not given, grade 2, phase I A		patients with treatment-related adverse event	0%
CCCCCC(=O)C(=O)C(O)CO (stereo not shown)	pressure-area isotherm	lipid monolayer		relative to: control monolayer	convergence surface pressure	~20 mN/m
CC(=O)N([O-])CCCCCNC(=O)CCC(=O)N([O-])CCCCCNC(=O)CCC(=O)N([O-])CCCCCN.[89Zr+4]	radio-iTLC	aqueous buffer	initial, pH 5.0, 37 °C, EDTA challenge, added: 100-fold excess EDTA		intact complex	97 ± 0.2%
CC(C)C[C@H](NC(=O)[C@H](CCC1CCCCC1)NC(=O)[C@@H]1CCCN1C(=O)c1ccc(F)cc1)C(=O)NC(C)(C)C(=O)N[C@@H](CC(C)C)C(=O)N[C@@H](CC(C)C)C(=O)NC(C)(C)C(=O)NC(C)(C)C(=O)NCCC(=O)NC1(CN(C)C)CCC1		mouse Balb/c male, liver microsomes	2 µM, 40 min, pH 7.4		remaining compound	> 80%
N=C(N)NCCC[C@@H]1NC(=O)[C@H](Cc2c[nH]c3ccccc23)NC(=O)[C@@H](CC2CCCCC2)NC(=O)[C@@H]2CCCN2C(=O)[C@@H](NC(=O)CCc2ccccc2)CCCNC1=O		C57BL/6J mice, spinal cord	oral, 1 mg/kg, two-compartment model		apparent distributional clearance	< 0.001 ng/(min·ng/g)
CN1CCC[C@]1(C)/C=C/S(=O)(=O)NC(=O)Nc1c2c(cc3c1CCC3)CCC2		human, plasma	oral, 12.5 mg twice daily, day 1, multiple ascending dose		AUC(0-24)	16900 ng·h/mL
Cc1ccc(OCC(=O)N(Cc2cccs2)c2ccn[nH]2)cc1		Sprague-Dawley rat, female, plasma	oral gavage, 100 mg/kg		dose-normalised AUC(0-last)	1.57 ng·h/mL/mg/kg
CC(C)[C@H](NC(=O)[C@@H]1CCCN1C(=O)[C@H](CCCNC(=N)N)NC(=O)[C@H](CS)NC(=O)[C@H](Cc1c[nH]c2ccccc12)NC(=O)[C@H](CCCNC(=N)N)NC(=O)[C@@H](Cc1ccccc1)NC(=O)[C@H](Cc1c[nH]cn1)NC(=O)[C@H](CCC(=O)O)NC(=O)[C@H](CS)NC(=O)[C@H](CS)NC(=O)CNC(=O)[C@@H]1CC(=O)N[C@@H](CCCNC(=N)N)C(=O)NCC(=O)N[C@@H](CC(=O)O)C(=O)N[C@H](Cc2ccc(O)cc2)C(=O)N1)C(N)=O [technetium-99m labelled]		C57 mouse, female, B16/F1 melanoma, muscle	intravenous, 0.037 MBq, 0.5 h		tissue uptake	1.02 ± 0.7 %ID/g
CC(C)[C@H](NC(=O)CNC(=O)[C@H](CCC(N)=O)NC(=O)[C@H](C)N)C(=O)O		healthy volunteers, LPS endotoxaemia, plasma	intravenous, 45 mg/kg/h, 2 h infusion, geometric mean, added: LPS 2 ng/kg		AUC(0-t)	7650 ng·h/mL
CC(C)(C)NCC(SS(=O)(=O)O)c1ccccc1 (stereo not shown)	CYP-dependent metabolism	CD1 mouse, female, liver microsomes	4 µM, pH 7.4, added: with minus without NADPH		metabolic rate constant	0.1 h⁻¹
CCN(CC)CCN=S(=O)(c1ccccc1)N1CCCCC1 (stereo not shown)		PBS	24 h, pH 7, hydrolytic stability		recovery	100%
CCCC[C@H](NC(=O)CNC(=O)CNC(=O)CN1CCN(CC(=O)O)CCN(CC(=O)O)CC1)C(=O)N[C@H]1CC(=O)NCCCC[C@@H](C(N)=O)NC(=O)[C@H](Cc2c[nH]c3ccccc23)NC(=O)[C@H](CCCNC(=N)N)NC(=O)[C@@H](Cc2ccccc2)NC(=O)[C@H](Cc2c[nH]cn2)NC1=O [copper-64 labelled]		female C57 mouse, B16/F1 melanoma	intravenous, 0.037 MBq, 24 h	relative to: tumour over heart	uptake ratio	32.7
C#CCN(C(=O)OCc1ccc(C(=O)N(C)C)cc1)[c-]1cccc1.[Fe+2].c1cc[cH-]c1	cyclic and differential pulse voltammetry	acetonitrile	23 °C	relative to: ferrocene/ferrocenium	E1/2	-10 mV
CCCC[C@H](NC(=O)CNC(=O)CNC(=O)CN1CCN(CC(=O)O)CCN(CC(=O)O)CC1)C(=O)N[C@H]1CC(=O)NCCCC[C@@H](C(N)=O)NC(=O)[C@H](Cc2c[nH]c3ccccc23)NC(=O)[C@H](CCCNC(=N)N)NC(=O)[C@@H](Cc2ccccc2)NC(=O)[C@H](Cc2c[nH]cn2)NC1=O [gallium-67 labelled]		C57 mice, female, B16/F1 melanoma, urine	intravenous, 0.037 MBq, 0.5 h		urinary excretion	54.2 ± 13.1%
CCCCC1NC(=O)c2ccccc21 (racemic)		Wistar rat, both sexes, plasma	oral, 10 mg/kg		elimination half-life	1.29 ± 0.0483 h
CC[C@H](C)[C@H](NC(=O)[C@H](CO)NC(=O)[C@H](CCCNC(=N)N)NC(C)=O)C(=O)N[C@H]1CSSC[C@@H](C(=O)N[C@H](C(=O)NCCOCCOCCOCCOCCOCCOCCOCCOCCC(N)=O)[C@@H](C)O)NC(=O)[C@H](CCCNC(=N)N)NC(=O)[C@H](Cc2c[nH]cn2)NC(=O)[C@H](C)NC(=O)CNC(=O)[C@H](Cc2c[nH]c3ccccc23)NC(=O)[C@H](CC(=O)O)NC(=O)[C@H](CCC(N)=O)NC(=O)[C@H](Cc2c[nH]c3ccccc23)NC(=O)[C@H](C(C)C)NC1=O	UV absorbance	PBS	pH 7.4, slope 1 is full solubility		apparent solubility slope	0.92
COc1cc(C)c(Cc2ccc(O)cc2)cc1[C@@H]1S[C@H](CO)[C@@H](O)[C@H](O)[C@H]1O		Japanese T2DM patients, plasma	0.5 mg luseogliflozin, day 7, once daily	relative to: compound over luseogliflozin	AUC(0-τ) ratio	0.138 ± 0.0172

SMILES	assay	test system	setting	how to read	quantity	value
CCC/C(=C\C1=C(OC)C(=O)c2ccccc2C1=O)C(=O)NOC		FaSSGF	24 h, 37 °C		thermodynamic solubility	510 µg/mL (≈ 1550 µM)
CC(C)[C@H](NC(=O)CNC(=O)[C@H](CCC(N)=O)NC(=O)[C@H](C)N)C(=O)O	LC-MS/MS	human, male, plasma	intravenous, 10 mg/kg three times daily, day 2, first dose, 10 min infusion, geometric mean		volume of distribution	4 L/kg
CCCC[C@H](NC(=O)CN1CCC(NC(=O)CN2CCN(CC(=O)O)CCN(CC(=O)O)CCN(CC(=O)O)CC2)CC1)C(=O)N[C@H]1CC(=O)NCCCC[C@@H](C(N)=O)NC(=O)[C@H](Cc2c[nH]c3ccccc23)NC(=O)[C@H](CCCNC(=N)N)NC(=O)[C@@H](Cc2ccccc2)NC(=O)[C@H](Cc2c[nH]cn2)NC1=O [gallium-68 labelled]		male C57BL/6J mice, B16-F10 tumours, tumour, muscle	intravenous, 1 h, blocking study, added: 100 µg non-radioactive Ga-peptide	relative to: tumour over muscle	uptake ratio	2.8 ± 0.9
COc1cc(NC(C)=O)c2c(c1O)-c1c(OC)c(OC)cc3c1C(C2)N(C)CC3 (stereo not shown)		rat brain homogenate	50 µg/mL, 24 h, room temperature, post-preparative storage		remaining compound	96.3 ± 2%
Cn1c(=O)oc2ccc(-c3ccc(CC(C#N)NC(=O)C4CNCCCO4)c(F)c3)cc21 (stereo not shown)		dog			NOAEL	30 mg/kg
COC(=O)c1ccc(CCc2cc3cc4nc(c(OC)c5[nH]c(cc6nc(cc2[nH]3)CC6(C)C)cc5CCCNC(=O)OC(C)(C)C)C(=O)C4(C)C)cc1		DMF	room temperature		Qy/B absorption intensity ratio	0.41
CC(C)(O)c1ncc([S@](N)(=O)=NC(=O)Nc2c3c(cc4c2CCC4)CCC3)s1		healthy human volunteers, plasma	oral, 25 mg twice daily, day 14, fed, enteric-coated tablet		Tmax	4 h
CCCCCCCCCCCCCCCC(=O)NCCOCCOCCOCCOCCOCCOCCOCCOCCC(=O)NCCCC[C@H](NC(=O)CNC(=O)[C@@H]1CSSC[C@H](N)C(=O)N[C@@H](Cc2ccc(O)cc2)C(=O)N[C@@H]([C@@H](C)CC)C(=O)N[C@@H](CCC(N)=O)C(=O)N[C@@H](CC(N)=O)C(=O)N1)C(=O)NCC(N)=O		mouse, plasma	subcutaneous depot, dose not given, at least 24 h		steady unbound concentration	1 nM
CCCC[C@@H]1NC(=O)[C@@H](NC(=O)[C@H](CCC(=O)O)NC(=O)CNC(=O)CN2CCN(CC(=O)O)CCN(CC(=O)O)CCN(CC(=O)O)CC2)CCCCNC(=O)C[C@@H](C(N)=O)NC(=O)[C@H](C(C)C)NC(=O)[C@@H]2CCCN2C(=O)[C@H](CCCNC(=N)N)NC(=O)CNC(=O)[C@H](Cc2c[nH]c3ccccc23)NC(=O)[C@H](CCCNC(=N)N)NC(=O)[C@@H](Cc2ccccc2)NC(=O)[C@H](Cc2c[nH]cn2)NC(=O)[C@H](CCC(=O)O)NC1=O [gallium-67 labelled]		C57 mice with B16/F1 melanoma	intravenous, 0.037 MBq/mouse, 24 h	relative to: tumour over blood	tumour to blood ratio	33.5
CCCCCCCC(=O)OC[C@H](NC(=O)[C@H](CO)NC(=O)CN)C(=O)N[C@@H](Cc1ccccc1)C(=O)N[C@@H](CC(C)C)C(=O)N[C@@H](CO)C(=O)N1CCC[C@H]1C(=O)N[C@@H](CCC(=O)O)C(=O)N[C@@H](Cc1cnc[nH]1)C(=O)N[C@@H](CCC(N)=O)C(=O)N[C@@H](CCCNC(=N)N)C(=O)N[C@H](C(=O)N[C@@H](CCC(N)=O)C(=O)N[C@@H](CCC(N)=O)C(=O)N[C@@H](CCCNC(=N)N)C(=O)N[C@@H](CCCCN)C(=O)N[C@@H](CCC(=O)O)C(=O)N[C@@H](CO)C(=O)N[C@@H](CCCCN)C(=O)N[C@@H](CCCCN)C(=O)N1CCC[C@H]1C(=O)N1CCC[C@H]1C(=O)N[C@@H](C)C(=O)N[C@@H](CCCCN)C(=O)N[C@@H](CC(C)C)C(=O)N[C@@H](CCC(N)=O)C(=O)N1CCC[C@H]1C(=O)N[C@@H](CCCNC(=N)N)C(=O)O)C(C)C	beat-to-beat plethysmography	human chronic HFrEF patients	intravenous infusion, 0.1 µg/kg/min, 30 min after infusion end		blood pressure dBP	58.9 ± 7.5 mm Hg
C[C@H](Oc1cc(-c2cnn(C3CCN(CC[18F])CC3)c2)cnc1N)c1c(Cl)ccc(F)c1Cl	PET imaging	nude mouse, brain	iv, 30 min post injection		tracer uptake	2.6 ± 0.9 %ID/cc
O=C(NCCCN(CCCCN(CCCNC(=O)c1cccc(=O)n1[O-])C(=O)c1cccc(=O)n1[O-])C(=O)c1cccc(=O)n1[O-])c1cccc(=O)n1[O-].[89Zr+4]	radio-TLC	PBS	1 h, pH 7.4, 37 °C, added: Cu^2+ 10-fold excess		intact complex	98.2 ± 2.5%
C=CC(=O)Nc1cc(Nc2nccc(-c3cn(C)c4ccccc34)n2)c(OC)cc1N(C)CCNC	UHPLC-MS/MS	human, plasma	oral, 80 mg daily		steady-state trough concentration	18 ng/mL
C#CCOc1ccc(/C=C2\SC(=O)N(CC(=O)NCc3ccccc3)C2=O)cc1	inverse Kirkwood-Buff integrals	binary solvent mixture	298.15 K, mole fraction x1 0.35		Kirkwood-Buff integral G2,3	-381 cm³/mol
O=C(Nc1nccs1)C(c1cc(F)ccc1O)N1Cc2ccccc2C1=O (stereo not shown)		mouse plasma	6 ng/mL, 5 h, room temperature, short-term stability, low QC		recovery	97.8 ± 2.7%
Oc1c(Br)cc(Br)c2nc3cc(SC(F)(F)F)ccc3nc12		human red blood cells	200 µM, 1 h, pH 7.2, 37 °C		hemolysis	≤ 1%
CC(C)CCCC(C)CCCC(C)CCO[C@@H]1O[C@H](CO)[C@@H](O[C@H]2O[C@H](CO)[C@@H](O)[C@H](O)[C@H]2O)[C@H](O)[C@H]1O (stereo partly shown)	dynamic surface tension		0.0072 mmol/L		characteristic time t*	167 s
C=C(c1cc(F)c(C(=O)O)c(F)c1)c1cc2c(cc1C)C(C)(C)CCC2(C)C		Sprague-Dawley rat, male	oral, 100 mg/kg, 12 h, sesame oil vehicle		blood cholesterol	65 ± 13 mg/dL
[11CH3]c1ccc2nc(C3CCC3)n(-c3ccc4[nH]ncc4c3)c2n1	extrapolated from mouse biodistribution	standard human, gallbladder wall			absorbed dose	4.4 µSv/MBq
Cc1ccc(-c2ccc(-c3cc4sccc4o3)cn2)nc1		acetonitrile	zinc(II) complex, added: quinine bisulfate reference		fluorescence quantum yield	0.55
CC(C)(Sc1ccncc1-c1ccc(C#N)c2ccccc12)C(=O)OC1OC(C(=O)O)C(O)C(O)C1O (stereo not shown)		urine	oral, 15 mg, severe renal impairment	relative to: normal renal function	fraction excreted unchanged	~63%
